Published values pooled from the literature.
FGFR3 isoform IIIc: FGFR3 isoform IIIc (unknown, UniProt Q61851)
Sequence of UniProt Q61851 (whole entry, looked up): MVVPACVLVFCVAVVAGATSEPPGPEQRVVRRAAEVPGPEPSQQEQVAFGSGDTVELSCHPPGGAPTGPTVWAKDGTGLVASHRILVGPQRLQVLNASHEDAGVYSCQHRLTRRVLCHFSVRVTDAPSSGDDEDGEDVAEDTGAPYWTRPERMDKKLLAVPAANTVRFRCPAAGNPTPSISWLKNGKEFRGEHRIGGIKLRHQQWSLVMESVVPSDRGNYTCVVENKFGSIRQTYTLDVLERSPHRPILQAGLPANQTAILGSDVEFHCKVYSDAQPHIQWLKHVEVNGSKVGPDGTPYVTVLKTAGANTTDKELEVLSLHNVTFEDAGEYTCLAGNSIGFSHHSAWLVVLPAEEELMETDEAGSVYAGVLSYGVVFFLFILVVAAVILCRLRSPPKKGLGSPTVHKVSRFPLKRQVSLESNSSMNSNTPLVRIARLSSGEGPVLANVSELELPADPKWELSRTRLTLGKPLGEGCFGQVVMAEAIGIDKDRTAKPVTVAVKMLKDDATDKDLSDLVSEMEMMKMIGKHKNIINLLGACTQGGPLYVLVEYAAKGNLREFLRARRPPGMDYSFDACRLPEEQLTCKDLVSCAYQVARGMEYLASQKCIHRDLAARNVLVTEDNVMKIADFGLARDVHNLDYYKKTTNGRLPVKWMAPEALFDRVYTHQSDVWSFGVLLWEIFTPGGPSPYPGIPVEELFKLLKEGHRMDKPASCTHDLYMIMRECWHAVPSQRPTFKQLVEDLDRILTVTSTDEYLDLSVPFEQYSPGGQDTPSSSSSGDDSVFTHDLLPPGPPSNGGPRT
B1: TIMP3 24-144 (Homo sapiens, UniProt P35625); sequence looked up; chain CTCSPSHPQDAFCNSDIVIRAKVVGKKLVKEGPFGTLVYTIKQMKMYRGFTKMPHVQYIHTEASESLCGLKLEVNKYQYLLTGRVYDGKMYTGLCNFVERWDQLTLSQRKGLNYRYHLGCN
B2: UGT1A9 (Homo sapiens, UniProt O60656); chain GKLLVVPMDGSHWFTMRSVVEKLILRGHEVVVVMPEVSWQLGRSLNCTVKTYSTSYTLEDLDREFKAFAHAQWKAQVRSIYSLLMGSYNDIFDLFFSNCRSLFKDKKLVEYLKESSFDAVFLDPFDNCGLIVAKYFSLPSVVFARGILCHYLEEGAQCPAPLSYVPRILLGFSDAMTFKERVRNHIMHLEEHLLCHRFFKNALEIASEILQTPVTEYDLYSHTSIWLLRTDFVLDYPKPVMPNMIFIGGINCHQGKPLPMEFEAYINASGEHGIVVFSLGSMVSEIPEKKAMAIADALGKIPQTVLWRYTGTRPSNLANNTILVKWLPQNDLLGHPMTRAFITHAGSHGVYESICNGVPMVMMPLFGDQMDNAKRMETKGAGVTLNVLEMTSEDLENALKAVINDKSYKENIMRLSSLHKDRPVEPLDLAVFWVEFVMRHKGAPHLRPAAHDLTWYQYHSLDVIGFLLAVVLTVAFITFKCCAYGYRKCLGKKGRVKKAHKSKTH
Sequence of UniProt P11362 (whole entry, looked up): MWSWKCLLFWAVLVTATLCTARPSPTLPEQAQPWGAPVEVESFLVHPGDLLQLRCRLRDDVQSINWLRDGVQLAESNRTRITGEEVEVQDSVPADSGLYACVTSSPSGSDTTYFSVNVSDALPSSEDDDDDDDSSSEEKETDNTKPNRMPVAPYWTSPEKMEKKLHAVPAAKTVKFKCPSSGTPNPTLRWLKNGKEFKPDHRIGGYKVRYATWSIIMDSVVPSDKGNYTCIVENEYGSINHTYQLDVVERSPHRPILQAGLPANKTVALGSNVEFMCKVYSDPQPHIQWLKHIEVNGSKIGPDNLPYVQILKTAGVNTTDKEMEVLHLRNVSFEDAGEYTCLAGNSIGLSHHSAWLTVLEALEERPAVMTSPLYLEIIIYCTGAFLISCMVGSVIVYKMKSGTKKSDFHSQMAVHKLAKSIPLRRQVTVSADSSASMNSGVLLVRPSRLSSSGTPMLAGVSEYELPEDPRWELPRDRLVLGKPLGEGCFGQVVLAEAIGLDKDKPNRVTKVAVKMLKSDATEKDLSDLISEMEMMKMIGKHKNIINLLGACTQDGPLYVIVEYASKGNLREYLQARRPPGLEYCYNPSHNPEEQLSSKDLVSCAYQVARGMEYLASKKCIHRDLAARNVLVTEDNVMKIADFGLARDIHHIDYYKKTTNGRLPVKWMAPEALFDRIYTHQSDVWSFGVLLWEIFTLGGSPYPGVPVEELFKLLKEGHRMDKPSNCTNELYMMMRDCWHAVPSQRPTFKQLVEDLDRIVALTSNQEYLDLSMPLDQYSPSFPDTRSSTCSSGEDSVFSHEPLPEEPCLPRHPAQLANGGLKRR
Sequence of UniProt P39730 (whole entry, unmodified, looked up): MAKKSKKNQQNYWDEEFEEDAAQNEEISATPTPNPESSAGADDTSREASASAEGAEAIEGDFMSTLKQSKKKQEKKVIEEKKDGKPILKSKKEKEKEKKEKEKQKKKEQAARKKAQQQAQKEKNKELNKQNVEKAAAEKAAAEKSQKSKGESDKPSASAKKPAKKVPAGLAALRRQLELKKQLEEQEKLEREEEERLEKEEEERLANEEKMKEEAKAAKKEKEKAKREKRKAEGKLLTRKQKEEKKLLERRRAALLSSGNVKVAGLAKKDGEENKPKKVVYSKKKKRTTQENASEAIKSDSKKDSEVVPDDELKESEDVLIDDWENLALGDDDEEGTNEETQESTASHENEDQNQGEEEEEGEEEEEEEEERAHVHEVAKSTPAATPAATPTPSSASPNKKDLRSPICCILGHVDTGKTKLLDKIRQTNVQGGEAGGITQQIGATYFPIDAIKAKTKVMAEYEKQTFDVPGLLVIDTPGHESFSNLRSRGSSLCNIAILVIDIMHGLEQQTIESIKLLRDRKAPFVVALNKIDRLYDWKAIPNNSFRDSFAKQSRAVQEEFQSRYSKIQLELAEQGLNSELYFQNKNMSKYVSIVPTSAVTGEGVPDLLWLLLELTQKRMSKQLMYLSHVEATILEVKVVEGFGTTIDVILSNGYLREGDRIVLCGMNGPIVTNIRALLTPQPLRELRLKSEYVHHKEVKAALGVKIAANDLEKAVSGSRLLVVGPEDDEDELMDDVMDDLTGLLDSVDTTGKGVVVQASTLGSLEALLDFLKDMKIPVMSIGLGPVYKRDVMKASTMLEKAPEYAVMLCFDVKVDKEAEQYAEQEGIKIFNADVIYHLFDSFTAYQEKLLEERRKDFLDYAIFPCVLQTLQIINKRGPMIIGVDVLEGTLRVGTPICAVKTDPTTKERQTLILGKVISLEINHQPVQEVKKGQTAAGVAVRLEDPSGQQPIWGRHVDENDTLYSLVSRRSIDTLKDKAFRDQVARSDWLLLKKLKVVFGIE
Sequence of UniProt P30872 (whole entry, unmodified, looked up): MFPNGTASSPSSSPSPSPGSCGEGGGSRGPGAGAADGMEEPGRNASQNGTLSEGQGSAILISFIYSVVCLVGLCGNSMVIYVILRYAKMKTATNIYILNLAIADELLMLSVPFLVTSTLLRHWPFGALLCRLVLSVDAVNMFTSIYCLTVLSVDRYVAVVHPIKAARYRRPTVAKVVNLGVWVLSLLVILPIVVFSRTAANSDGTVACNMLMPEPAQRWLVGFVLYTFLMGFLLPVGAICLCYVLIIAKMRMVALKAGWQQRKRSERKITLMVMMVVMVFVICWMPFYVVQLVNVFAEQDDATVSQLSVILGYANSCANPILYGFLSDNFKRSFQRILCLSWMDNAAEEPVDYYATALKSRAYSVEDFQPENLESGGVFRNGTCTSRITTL
Sequence of UniProt P55075 (whole entry, looked up): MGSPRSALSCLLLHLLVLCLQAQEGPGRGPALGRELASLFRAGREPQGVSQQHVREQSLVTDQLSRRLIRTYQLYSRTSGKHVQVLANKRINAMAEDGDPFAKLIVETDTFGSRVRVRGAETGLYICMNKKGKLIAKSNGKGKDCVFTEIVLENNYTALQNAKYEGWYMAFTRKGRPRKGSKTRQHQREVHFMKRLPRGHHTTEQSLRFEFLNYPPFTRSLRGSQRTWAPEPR
Sequence of UniProt P08254 (whole entry, looked up): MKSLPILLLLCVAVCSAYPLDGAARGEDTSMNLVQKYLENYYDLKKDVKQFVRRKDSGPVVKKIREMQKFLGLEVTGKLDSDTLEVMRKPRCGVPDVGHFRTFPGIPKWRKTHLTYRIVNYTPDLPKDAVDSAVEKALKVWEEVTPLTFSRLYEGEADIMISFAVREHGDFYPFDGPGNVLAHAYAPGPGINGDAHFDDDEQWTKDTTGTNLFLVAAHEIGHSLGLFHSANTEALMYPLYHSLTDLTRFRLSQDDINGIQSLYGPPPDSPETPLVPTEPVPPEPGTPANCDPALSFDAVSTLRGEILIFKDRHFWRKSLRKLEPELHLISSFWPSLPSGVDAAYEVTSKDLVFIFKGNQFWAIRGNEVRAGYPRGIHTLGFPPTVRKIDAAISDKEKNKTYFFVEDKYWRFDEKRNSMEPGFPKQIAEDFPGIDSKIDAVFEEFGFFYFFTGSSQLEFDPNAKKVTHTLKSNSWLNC
Sequence of UniProt P05230 (whole entry, looked up): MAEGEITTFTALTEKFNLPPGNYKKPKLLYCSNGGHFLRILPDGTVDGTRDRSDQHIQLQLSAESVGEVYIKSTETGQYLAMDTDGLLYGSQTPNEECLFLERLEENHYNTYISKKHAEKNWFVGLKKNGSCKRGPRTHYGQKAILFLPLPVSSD
Sequence of UniProt P31266 (whole entry, unmodified, looked up): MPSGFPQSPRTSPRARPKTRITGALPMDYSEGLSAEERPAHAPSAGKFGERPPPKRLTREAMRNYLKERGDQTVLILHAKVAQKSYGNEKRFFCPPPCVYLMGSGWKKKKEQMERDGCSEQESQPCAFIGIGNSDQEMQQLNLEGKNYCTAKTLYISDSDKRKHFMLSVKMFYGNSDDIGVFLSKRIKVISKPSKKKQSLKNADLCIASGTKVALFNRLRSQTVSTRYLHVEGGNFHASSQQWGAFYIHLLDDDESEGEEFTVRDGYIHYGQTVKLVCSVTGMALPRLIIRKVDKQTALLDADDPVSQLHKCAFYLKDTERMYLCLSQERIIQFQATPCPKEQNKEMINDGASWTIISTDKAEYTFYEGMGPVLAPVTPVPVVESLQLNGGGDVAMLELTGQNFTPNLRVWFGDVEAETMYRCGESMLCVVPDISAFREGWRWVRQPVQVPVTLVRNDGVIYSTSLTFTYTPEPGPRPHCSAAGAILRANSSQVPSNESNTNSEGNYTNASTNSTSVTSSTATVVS
Sequence of UniProt P0A6A8 (whole entry, looked up): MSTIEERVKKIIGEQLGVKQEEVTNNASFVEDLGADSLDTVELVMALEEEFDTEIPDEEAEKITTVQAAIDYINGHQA
Sequence of UniProt Q8PTU1 (whole entry, looked up): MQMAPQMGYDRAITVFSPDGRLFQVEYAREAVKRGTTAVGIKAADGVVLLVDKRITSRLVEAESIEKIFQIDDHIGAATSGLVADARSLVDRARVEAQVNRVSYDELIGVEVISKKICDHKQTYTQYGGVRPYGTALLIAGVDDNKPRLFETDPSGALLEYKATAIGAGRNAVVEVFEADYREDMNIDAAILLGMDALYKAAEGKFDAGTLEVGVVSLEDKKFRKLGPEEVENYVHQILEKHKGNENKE

| Substance | tested on | test | test system | conditions | how to read | endpoint | value |
| --- | --- | --- | --- | --- | --- | --- | --- |
| TIF11 fragment (Saccharomyces cerevisiae) | FUN12 396-1002 (Saccharomyces cerevisiae, UniProt P39730) | subunit joining, stopped-flow light scattering |  |  |  | rate constant | 0.013 s⁻¹ |
| FGF1 (Homo sapiens, UniProt P05230) | FGFR3 isoform IIIc | cell proliferation, MTT | BaF3-FGFR3c | 20 nM, 48 h, together with: unmodified decamer 4.9 µg/mL | reference: FGF 1 with heparin, higher = more proliferation | cell proliferation | 5% |
| FGF2 fragment C78S/C96S, C-terminal KCK, vcMMAE on Cys (Homo sapiens) | FGFR1 extracellular domain, Fc fusion 22-376 (UniProt P11362) | cell viability, Alamar Blue | U2OS-R1 | 96 h |  | EC50 | 16.7 nM |
| B1 (TIMP3 24-144) | MMP3 100-272 (Homo sapiens, UniProt P08254) | inhibitor, steady-state kinetics |  | 1 h, 37 °C, apparent, tight-binding fit |  | Ki | 9.1 nM |
| fabF K128A (Escherichia coli) | acpP C12-acylated 1-78, C12 acyl on 4'-phosphopantetheine (Escherichia coli, UniProt P0A6A8) | holo-AcpP formation, HPLC |  | 10 µM, together with: malonyl-CoA |  | condensation rate | 2.34 min⁻¹ |
| Pfa1 G-patch (Chaetomium thermophilum) | RNA helicase (Thermochaetoides thermophila, UniProt G0RY84) | RNA unwinding, activator |  |  |  | unwinding rate constant | 4.6 min⁻¹ |
| B2 (UGT1A9) | O=C(/C=C/c1ccccc1)c1ccc(O)cc1 | steady-state kinetics |  | pH 7.4, 37 °C |  | Vmax/Km | 197 µL/min/mg |
| F8 A2 subunit D666C | F8 A1 and A3C1C2 dimer, factor VIIIa S1788C | FXa generation activity loss |  | 1.5 nM, 23 °C, disulfide-linked A2 | higher = faster decay | decay rate | 0.002 min⁻¹ |
| lanreotide, D-Trp, cyclic disulfide | SSTR1 M141Q (Homo sapiens, UniProt P30872) | cAMP inhibition, FRET Epac sensor | HEK 293T |  | reference: wild-type SSTR1, higher = greater potency | potency of cAMP inhibition | 10 fold |
| CDC48-A (Methanosarcina mazei) | 20S proteasome core particle (Methanosarcina mazei, UniProt Q8PTU1) | BODIPY-casein degradation, activator |  | 100 nM CP, together with: ATP | reference: MmCP alone, higher = more degradation | casein degradation | 2 fold |
| MMP2 fragment R368A (Homo sapiens) | COL1A1/COL1A2 denatured, gelatin (Homo sapiens) | DQ-gelatin fluorescence |  | 10 nM, 25 °C | higher = faster hydrolysis | hydrolysis rate | 0.178 RFU/s |
| MENVKKATATATWMVPTAQ (L3MBTL3 52-70 T62A (Homo sapiens, UniProt Q96JM7-2); sequence looked up) | Rbpj 53-474 (Mus musculus, UniProt P31266) | ITC | peptide | pH 6.5, 25 °C, NaCl 150 mM |  | ΔH | -13.7 kcal/mol |
| FGF8 (Homo sapiens, UniProt P55075) | FGFR3 isoform IIIc | cell proliferation, MTT | BaF3-FGFR3c | 20 nM, 48 h, together with: chondroitin sulfate E 4.9 µg/mL | reference: FGF 1 with heparin, higher = more proliferation | cell proliferation | 47% |

Some of these lines once more:
| Substance | tested on | test | test system | conditions | how to read | endpoint | value |
| --- | --- | --- | --- | --- | --- | --- | --- |
| CDC48-A (Methanosarcina mazei) | 20S proteasome core particle (Methanosarcina mazei, UniProt Q8PTU1) | BODIPY-casein degradation, activator |  | 100 nM CP, together with: ATP | reference: MmCP alone, higher = more degradation | casein degradation | 2 fold |
